Measured values gathered from unrelated publications.
Each numbered part is a random draw from the data of one study; scales do not carry over between parts. Positions count from the first letter of the parent shown.

Set 1
Target: ABI1, truncated, D143A, DHFR fusion (Arabidopsis thaliana)
Technique: DHFR PCA, deep sequencing
Medium: yeast
Setting: methotrexate growth selection, single substitutions
Added: (+)-ABA 17 µM
Relative to: wild-type fitted maximum
Reading: higher = stronger binding
Measurement: relative binding score
Starting sequence: PYL1, truncated, DHFR fusion (Arabidopsis thaliana); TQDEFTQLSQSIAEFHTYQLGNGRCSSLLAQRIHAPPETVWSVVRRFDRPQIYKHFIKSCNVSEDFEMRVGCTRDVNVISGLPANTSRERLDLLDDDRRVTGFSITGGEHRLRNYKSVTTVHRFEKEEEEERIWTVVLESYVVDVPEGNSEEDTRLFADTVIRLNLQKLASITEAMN; partner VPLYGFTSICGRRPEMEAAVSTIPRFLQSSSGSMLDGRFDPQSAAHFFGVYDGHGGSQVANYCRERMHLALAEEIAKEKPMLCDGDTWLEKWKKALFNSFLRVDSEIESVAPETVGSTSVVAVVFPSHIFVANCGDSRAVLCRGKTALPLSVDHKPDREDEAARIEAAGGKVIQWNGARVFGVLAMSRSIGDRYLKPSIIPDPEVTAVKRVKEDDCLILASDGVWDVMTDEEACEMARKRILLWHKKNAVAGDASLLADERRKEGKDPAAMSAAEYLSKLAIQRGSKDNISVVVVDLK
Substitution = V43R; result = 5.49%
Substitution = T101R; result = -11%
Substitution = S63W; result = 24.7%
Substitution = P50Y; result = -12.5%
Substitution = R32G; result = 40.2%
Substitution = F15Q; result = 16.1%

Set 2
Target: DBP, bZIP domain (human)
Technique: DHFR protein complementation
Medium: yeast
Setting: single substitutions, most at no-binding floor
Relative to: wild-type JUN-FOS pair
Reading: higher = stronger binding
Measurement: binding fitness
Starting sequence: JUN, bZIP domain (human); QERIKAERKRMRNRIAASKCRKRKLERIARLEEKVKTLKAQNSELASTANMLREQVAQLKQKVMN; partner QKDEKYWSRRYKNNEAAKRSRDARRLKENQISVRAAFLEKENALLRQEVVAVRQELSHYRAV
Substitution = A57R; result = -1.49 natural log
Substitution = Q41H; result = -1.61 natural log
Substitution = N42K; result = -1.5 natural log
Substitution = E54P; result = -1.5 natural log
Substitution = E44P; result = -1.51 natural log
Substitution = L38V; result = -1.48 natural log

Set 3
Target: Histone acetyltransferase KAT6A, both winged helices, GST fusion (KAT6A, Homo sapiens, UniProt Q92794, residues 1-181)
Technique: protein binding microarray
Form: double-stranded DNA, one strand shown
Medium: in vitro
Tested at: not given
Setting: 8-mer, flanks averaged, mean of 2 arrays, mostly near background
Relative to: not given
Reading: higher = stronger binding
Measurement: E-score
Target sequence (chain): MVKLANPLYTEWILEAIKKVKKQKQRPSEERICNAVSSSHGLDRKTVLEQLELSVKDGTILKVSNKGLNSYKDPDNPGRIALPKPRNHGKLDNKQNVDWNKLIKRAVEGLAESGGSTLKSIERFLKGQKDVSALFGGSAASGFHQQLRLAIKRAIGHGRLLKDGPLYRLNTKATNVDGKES
Strand = AGCGAGAG; result = -0.00199
Strand = GCTTTCTA; result = 0.0519
Strand = CACGGTCC; result = 0.0611
Strand = GTACTTAA; result = -0.123
Strand = ACTAGTTA; result = -0.079
Strand = ACGAGTAA; result = -0.0375
Strand = ACAGCAAG; result = -0.206
Strand = CTCAAGAA; result = -0.139

Mixed results
Molecule = PhoQ, residues 284 288 289 292 302 303 ASVMEA; target = PhoP, residues 12 14 15 18 19 NHFRA (Escherichia coli, UniProt P23836); test = Sort-seq, refers to: YFP reporter; system = E. coli; conditions = PhoQ-PhoP variant library, added: 10 µM Mg2+; how to read = relative to: high Mg2+ state, higher = stronger signaling; measurement = fold induction; result = 3.87

Some of these lines once more (set 2):
Substitution = A57R; result = -1.49 natural log
Substitution = N42K; result = -1.5 natural log
Substitution = Q41H; result = -1.61 natural log
